Assay results of several laboratories.
Compare with care: the assays were run in different laboratories. ± marks the error that the study gave.
POLB: DNA polymerase beta (POLB, Homo sapiens, UniProt P06746)
Chain of UniProt Q8I2X3 (whole entry, looked up): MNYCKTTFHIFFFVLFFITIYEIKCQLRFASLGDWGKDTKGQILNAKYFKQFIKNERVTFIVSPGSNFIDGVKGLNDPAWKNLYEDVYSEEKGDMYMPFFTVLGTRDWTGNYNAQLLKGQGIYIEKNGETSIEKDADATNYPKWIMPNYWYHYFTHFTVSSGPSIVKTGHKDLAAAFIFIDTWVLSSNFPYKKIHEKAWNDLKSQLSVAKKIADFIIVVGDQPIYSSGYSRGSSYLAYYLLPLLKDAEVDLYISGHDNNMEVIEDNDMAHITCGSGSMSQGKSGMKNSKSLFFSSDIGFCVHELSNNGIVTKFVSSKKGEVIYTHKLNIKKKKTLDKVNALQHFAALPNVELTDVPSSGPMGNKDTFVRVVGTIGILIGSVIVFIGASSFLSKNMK
Chain of UniProt P20248 (whole entry, looked up): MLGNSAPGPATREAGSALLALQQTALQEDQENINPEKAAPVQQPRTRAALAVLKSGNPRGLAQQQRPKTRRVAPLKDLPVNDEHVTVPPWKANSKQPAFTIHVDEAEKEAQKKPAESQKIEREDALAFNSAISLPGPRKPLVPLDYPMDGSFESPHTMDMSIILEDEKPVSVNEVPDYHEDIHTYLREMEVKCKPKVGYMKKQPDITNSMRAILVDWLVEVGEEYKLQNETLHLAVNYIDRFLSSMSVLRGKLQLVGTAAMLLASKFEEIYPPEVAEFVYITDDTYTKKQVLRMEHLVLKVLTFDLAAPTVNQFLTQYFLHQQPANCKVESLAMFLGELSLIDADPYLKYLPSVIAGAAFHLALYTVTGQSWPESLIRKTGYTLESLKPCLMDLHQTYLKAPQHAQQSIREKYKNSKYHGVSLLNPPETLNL
Chain of UniProt O95931 (whole entry, looked up): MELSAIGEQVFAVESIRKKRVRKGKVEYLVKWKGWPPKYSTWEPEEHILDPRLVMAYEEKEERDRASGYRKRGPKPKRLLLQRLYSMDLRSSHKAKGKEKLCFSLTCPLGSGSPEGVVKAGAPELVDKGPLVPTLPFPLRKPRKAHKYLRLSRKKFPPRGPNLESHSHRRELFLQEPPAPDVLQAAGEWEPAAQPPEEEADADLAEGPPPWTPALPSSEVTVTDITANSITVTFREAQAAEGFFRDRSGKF
Chain of UniProt O00214 (whole entry, looked up): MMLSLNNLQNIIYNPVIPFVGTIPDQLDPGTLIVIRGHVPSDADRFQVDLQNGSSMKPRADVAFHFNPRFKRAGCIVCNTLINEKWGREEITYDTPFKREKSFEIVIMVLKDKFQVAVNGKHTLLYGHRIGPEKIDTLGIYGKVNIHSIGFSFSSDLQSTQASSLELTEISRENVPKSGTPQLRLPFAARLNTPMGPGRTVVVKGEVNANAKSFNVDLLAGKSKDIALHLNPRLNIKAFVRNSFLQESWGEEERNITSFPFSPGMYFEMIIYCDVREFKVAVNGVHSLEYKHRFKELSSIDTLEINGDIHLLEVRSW
Chain of UniProt P38169 (1-394, unmodified, looked up): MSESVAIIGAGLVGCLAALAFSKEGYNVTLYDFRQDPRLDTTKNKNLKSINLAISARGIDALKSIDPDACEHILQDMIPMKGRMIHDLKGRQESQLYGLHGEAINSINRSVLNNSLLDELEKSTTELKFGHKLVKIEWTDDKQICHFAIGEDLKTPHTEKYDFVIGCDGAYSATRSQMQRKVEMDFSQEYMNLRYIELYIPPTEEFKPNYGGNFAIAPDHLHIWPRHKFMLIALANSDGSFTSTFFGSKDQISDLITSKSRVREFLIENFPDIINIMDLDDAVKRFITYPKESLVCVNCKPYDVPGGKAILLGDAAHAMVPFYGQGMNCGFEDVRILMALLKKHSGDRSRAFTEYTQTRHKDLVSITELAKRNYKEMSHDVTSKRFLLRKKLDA
Chain of UniProt P10145 (whole entry, looked up): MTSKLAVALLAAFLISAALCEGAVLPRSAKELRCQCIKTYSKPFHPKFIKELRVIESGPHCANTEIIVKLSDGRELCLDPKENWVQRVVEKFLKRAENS
Chain of UniProt P63073 (whole entry, looked up): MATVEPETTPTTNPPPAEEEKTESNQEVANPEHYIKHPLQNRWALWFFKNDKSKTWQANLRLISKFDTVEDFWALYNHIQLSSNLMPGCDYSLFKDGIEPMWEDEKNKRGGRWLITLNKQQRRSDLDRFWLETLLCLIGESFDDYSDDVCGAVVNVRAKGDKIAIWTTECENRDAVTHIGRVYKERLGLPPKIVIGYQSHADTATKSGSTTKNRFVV
Chain of UniProt P32138 (whole entry, looked up): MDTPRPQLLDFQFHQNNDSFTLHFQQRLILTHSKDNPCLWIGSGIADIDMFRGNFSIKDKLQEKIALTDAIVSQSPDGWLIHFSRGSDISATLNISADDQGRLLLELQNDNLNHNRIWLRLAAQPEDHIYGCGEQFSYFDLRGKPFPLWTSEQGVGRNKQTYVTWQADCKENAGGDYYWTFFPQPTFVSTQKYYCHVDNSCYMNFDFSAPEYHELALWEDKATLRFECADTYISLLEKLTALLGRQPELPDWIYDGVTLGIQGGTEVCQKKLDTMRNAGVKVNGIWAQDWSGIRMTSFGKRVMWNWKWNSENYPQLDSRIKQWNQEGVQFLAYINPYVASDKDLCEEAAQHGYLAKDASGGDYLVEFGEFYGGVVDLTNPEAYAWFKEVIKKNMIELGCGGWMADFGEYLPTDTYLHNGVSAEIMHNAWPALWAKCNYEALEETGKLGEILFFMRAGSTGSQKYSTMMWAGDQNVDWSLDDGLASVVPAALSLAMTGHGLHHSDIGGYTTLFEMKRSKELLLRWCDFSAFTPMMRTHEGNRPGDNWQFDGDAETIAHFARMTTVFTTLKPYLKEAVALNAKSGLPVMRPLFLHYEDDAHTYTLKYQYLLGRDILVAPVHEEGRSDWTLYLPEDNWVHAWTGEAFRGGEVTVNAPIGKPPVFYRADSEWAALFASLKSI

NS(=O)(=O)c1c(F)c(F)c(S(=O)(=O)CCc2ccccc2)c(N[C@H]2CCc3ccccc32)c1F — Kd (CA2 (Homo sapiens, UniProt P00918, A65S/F130A/I91T/L203N/N67K/V134S); pH 7): 0.027 µM
C[n+]1cn(C2OC(COP(=O)(O)OP(=O)([O-])C(Cl)(Cl)P(=O)(O)OP(=O)(O)OCC3OC(n4cnc5c(=O)[nH]c(N)nc54)C(O)C3O)C(O)C2O)c2nc(N)nc(O)c21 (stereo not drawn) — Kd (Eukaryotic translation initiation factor 4E, residues 28-217 (Eif4e, Mus musculus, UniProt P63073); binding, fluorescence quenching titration; pH 7.2, 20 °C): 0.0128 ± 0.00028 µM
CC[C@H](C)[C@@H]1NC(=O)[C@H](C)NC(=O)[C@H](C)NC(=O)[C@H]([C@@H](C)O)NC(=O)[C@H](Cc2ccccc2)NC(=O)[C@@H]2CSSC[C@@H]3NC(=O)[C@H](C(C)C)NC(=O)[C@H](CCCCN)NC(=O)[C@H](CO)NC(=O)[C@H](CCCCN)NC(=O)[C@@H]4CSSC[C@H](NC(=O)[C@H](CO)NC(=O)[C@H](CCC(=O)O)NC(=O)CNC(=O)[C@H](CSSC[C@H](NC(=O)CNC1=O)C(=O)N[C@@H](C)C(=O)N4)NC(=O)[C@@H]1CCCN1C(=O)[C@H](Cc1ccccc1)NC(=O)CNC(=O)[C@H](CC(N)=O)NC(=O)[C@H](CCCCN)NC(=O)[C@H](Cc1ccc(O)cc1)NC3=O)C(=O)N[C@@H](C(C)C)C(=O)N[C@@H](Cc1ccc(O)cc1)C(=O)N[C@@H](CC(C)C)C(=O)N1CCC[C@H]1C(=O)N2 — Kd (POPC/POPE lipid membrane; membrane binding, surface plasmon resonance; POPC/POPE 80:20 vesicles; pH 7.4): 4.2 ± 0.23 µM
CCN(CC)CCCC[C@H](NC(=O)[C@H](CC(C)C)NC(=O)[C@H](C)NC(=O)[C@H](Cc1ccccc1)NC(=O)c1ccc(C(C)(C)C)cc1)C(=O)N[C@@H](CO)C(=O)NCCOCCOCCOCCOCCOCCOCCOCCOCCOCCOCCOCCNC(=O)CCCC[C@@H]1SC[C@@H]2NC(=O)N[C@@H]21 — Kd (Chromobox protein homolog 7 (Homo sapiens, UniProt O95931); binding, ITC): 0.22 µM
CC[C@H](C)[C@H](NC(=O)[C@@H]1CCCN1C(=O)[C@H](Cc1c[nH]cn1)NC(=O)[C@@H](NC(=O)[C@H](Cc1ccc(O)c(I)c1)NC(=O)[C@@H](NC(=O)[C@H](CCCNC(=N)N)NC(=O)CNC)C(C)C)[C@@H](C)CC)C(=O)O [iodine-125 labelled] — Kd (angiotensin II receptor type 1, rat; binding, saturation radioligand binding; female rat, proestrus, liver membranes): 0.00069 ± 0.00035 µM
O=S(=O)(O)C[C@H]1CNC[C@@H](O)[C@@H]1O — Kd (Sulfoquinovosidase (yihQ, Escherichia coli, UniProt P32138)): 0.96 ± 0.12 µM
Cc1cn([C@H]2C[C@H](O)[C@@H](COP(=O)(O)OP(=O)(O)C(F)(F)P(=O)(O)O)O2)c(=O)[nH]c1=O — Kd (POLB; dNTP binding, substrate, single-turnover kinetics; single-nucleotide gapped DNA; 37 °C, wild type, correct incorporation, with: dTTP opposite template A): 34.2 ± 8.3 µM
C[n+]1cn(C2OC(COP(=O)(O)OP(=O)([O-])OP(=O)(O)OCC3OC(n4cnc5c(=O)[nH]c(N)nc54)C(O)C3O)C(O)C2O)c2nc(NCc3ccccc3)[nH]c(=O)c21 (stereo not drawn) — Kd (Eif4e (Mus musculus, UniProt P63073); differential scanning fluorimetry): 5.03 µM
Nc1nc2c(ncn2C2CC(O)C(COP(=O)(O)OP(=O)(O)C(Cl)P(=O)(O)O)O2)c(=O)[nH]1 (mixture of isomers) — Kd (POLB; nucleotide binding, substrate, single turnover kinetics; 37 °C, dG misincorporation opposite A): 1000 ± 500 µM
CC[C@H](C)[C@H](NC(=O)[C@H](CC(C)C)NC(=O)[C@H](CCCNC(=N)N)NC(=O)c1ccc(CN2CCN(C)CC2)cc1)C(=O)N[C@@H](Cc1ccccc1)C(N)=O — Kd (Cyclin-A2 (CCNA2, Homo sapiens, UniProt P20248); binding, tryptophan fluorescence titration; co-expressed GroES-GroEL): 5.44 ± 0.257 µM
O=C(O)C1CC1C(=O)c1ccc(Cl)c(Cl)c1 (stereo not drawn) — Kd (Kynurenine 3-monooxygenase, residues 1-394 (Saccharomyces cerevisiae, UniProt P38169, R83M); binding, flavin fluorescence; 25 °C, R83M variant): 3.2 ± 0.2 µM
CC[C@H](C)[C@@H]1NC(=O)[C@H](C)NC(=O)[C@H](C)NC(=O)[C@H]([C@@H](C)O)NC(=O)[C@H](Cc2ccccc2)NC(=O)[C@@H]2CSSC[C@@H]3NC(=O)[C@H](C(C)C)NC(=O)[C@H](CCCCN)NC(=O)[C@H](CO)NC(=O)[C@H](CCCCN)NC(=O)[C@@H]4CSSC[C@H](NC(=O)[C@H](CO)NC(=O)[C@H](CCC(=O)O)NC(=O)CNC(=O)[C@H](CSSC[C@H](NC(=O)CNC1=O)C(=O)N[C@@H](CO)C(=O)N4)NC(=O)[C@@H]1CCCN1C(=O)[C@H](Cc1ccccc1)NC(=O)CNC(=O)[C@H](C)NC(=O)[C@H](CCCCN)NC(=O)[C@H](Cc1ccc(O)cc1)NC3=O)C(=O)N[C@@H](C(C)C)C(=O)N[C@@H](Cc1ccc(O)cc1)C(=O)N[C@@H](CC(C)C)C(=O)N1CCC[C@H]1C(=O)N2 — Kd (POPC/POPE lipid membrane; membrane binding, surface plasmon resonance; POPC/POPE 80:20 vesicles; pH 7.4): 4.85 ± 0.27 µM
C[Si](C)(C)c1cc2c3c(c1)O[C@H](CO)[C@H](O)[C@@H]3OC2 — Kd (Galectin-8 (LGALS8, Homo sapiens, UniProt O00214); cell-free assay, FP): 330 µM
Nc1nc2c(ncn2[C@H]2C[C@H](O)[C@@H](COP(=O)(O)OP(=O)(O)[C@@H](F)P(=O)(O)O)O2)c(=O)[nH]1 — Kd (POLB; substrate, quench-flow kinetics; pH 8.0, 37 °C, incorporation opposite C in gapped DNA): 10 ± 1 µM
C=CC(=O)Nc1cc(Nc2nccc(-n3ccc4nc(OC)ccc43)n2)c(OC)cc1N(C)CCN(C)C — Kd (EGFR (Homo sapiens, UniProt P00533, L858R/T790M); binding, competition with immobilised ligand): 5e-05 µM
CC(=O)N[C@@H]1[C@@H](O[C@@H]2O[C@H](C(=O)O)[C@@H](O[C@@H]3O[C@H](CO)[C@@H](O)[C@H](O[C@@H]4O[C@H](C(=O)O)[C@@H](O)[C@H](O)[C@H]4O)[C@H]3NC(C)=O)[C@H](O)[C@H]2O)[C@H](O)[C@@H](CO)O[C@H]1N=[N+]=[N-] — Kd (Interleukin-8 (CXCL8, Homo sapiens, UniProt P10145); fluorescence polarization competition): no binding
CNCCNC(=O)CN1C(=O)Cc2c([nH]c3ccc(Br)cc23)-c2ccc(Cl)cc21 — Kd (Trypanothione synthetase (Leishmania infantum, UniProt A4I2Z3); isothermal titration calorimetry; 28 °C, apo enzyme): 6.5 µM
Nc1nc2c(ncn2[C@H]2C[C@H](O)[C@@H](COP(=O)(O)OP(=O)(O)C(Cl)(Cl)P(=O)(O)O)O2)c(=O)[nH]1 — Kd (POLB; nucleotide binding, substrate, single turnover kinetics; 37 °C, dG misincorporation opposite A): 1400 ± 482 µM
NC(=O)CCC(=O)N1CCOC(CC(c2ccccc2)c2ccccc2)C1 (stereo not drawn) — Kd (Troponin C, slow skeletal and cardiac muscles, with cTnI (TNNC1, Human, UniProt P63316, C35S/C84S/T53C); slowing of Ca2+ dissociation, stopped-flow fluorescence; pH 7.0, 15 °C, IAANS-labelled chimera): 482 ± 300 µM
NC(=O)CN1C(=O)C(O)(CC(=O)c2cccc(N)c2)c2ccccc21 (stereo not drawn) — Kd (uncharacterized protein (Leishmania donovani, UniProt A0A3Q8IA09); fluorometric titration; pH 8.0, 298 K): 1.6 ± 0.2 µM
COc1ccc2c(c1)C1CC(C)(N2)c2c(C)nc3ccc(OC)cc3c21 (stereo not drawn) — Kd (Glideosome-associated protein 50 (GAP50, Plasmodium falciparum, UniProt Q8I2X3); surface plasmon resonance): < 75 µM

Some of these lines once more:
CC(=O)N[C@@H]1[C@@H](O[C@@H]2O[C@H](C(=O)O)[C@@H](O[C@@H]3O[C@H](CO)[C@@H](O)[C@H](O[C@@H]4O[C@H](C(=O)O)[C@@H](O)[C@H](O)[C@H]4O)[C@H]3NC(C)=O)[C@H](O)[C@H]2O)[C@H](O)[C@@H](CO)O[C@H]1N=[N+]=[N-] — Kd (Interleukin-8 (CXCL8, Homo sapiens, UniProt P10145); fluorescence polarization competition): no binding
